Assay results collected from several papers.
Each line is one published result; not all experiments were run side by side. Numbers after ± are the reported error.
U2AF2: U2AF2 148-342 (Homo sapiens, UniProt P26368)
Chain of UniProt P26368 (whole entry, looked up): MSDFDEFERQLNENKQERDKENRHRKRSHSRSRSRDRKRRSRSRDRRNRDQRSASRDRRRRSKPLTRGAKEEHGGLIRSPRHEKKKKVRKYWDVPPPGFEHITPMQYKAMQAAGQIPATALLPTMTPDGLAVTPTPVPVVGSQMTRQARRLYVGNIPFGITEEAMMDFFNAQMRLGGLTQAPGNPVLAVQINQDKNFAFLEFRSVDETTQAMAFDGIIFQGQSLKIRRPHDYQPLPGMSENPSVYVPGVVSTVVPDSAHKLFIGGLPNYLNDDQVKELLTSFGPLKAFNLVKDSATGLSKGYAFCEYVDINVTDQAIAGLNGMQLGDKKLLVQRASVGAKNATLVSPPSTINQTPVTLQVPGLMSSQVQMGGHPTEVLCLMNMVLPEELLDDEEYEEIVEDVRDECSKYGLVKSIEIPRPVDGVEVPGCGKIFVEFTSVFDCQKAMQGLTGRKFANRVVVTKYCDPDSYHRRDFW
B1: human HSP60; sequence looked up; chain AKDVKFGADARALMLQGVDLLADAVAVTMGPKGRTVIIEQSWGSPKVTKDGVTVAKSIDLKDKYKNIGAKLVQDVANNTNEEAGDGTTTATVLARSIAKEGFEKISKGANPVEIRRGVMLAVDAVIAELKKQSKPVTTPEEIAQVATISANGDKEIGNIISDAMKKVGRKGVITVKDGKTLNDELEIIEGMKFDRGYISPYFINTSKGQKCEFQDAYVLLSEKKISSIQSIVPALEIANAHRKPLVIIAEDVDGEALSTLVLNRLKVGLQVVAVKAPGFGDNRKNQLKDMAIATGGAVFGEEGLTLNLEDVQPHDLGKVGEVIVTKDDAMLLKGKGDKAQIEKRIQEIIEQLDVTTSEYEKEKLNERLAKLSDGVAVLKVGGTSDVEVNEKKDRVTDALNATRAAVEEGIVLGGGCALLRCIPALDSLTPANEDQKIGIEIIKRTLKIPAMTIAKNAGVEGSLIVEKIMQSSSEVGYDAMAGDFVNMVEKGIIDPTKVVRTALLDAAGVASLLTTAEVVVTEIPKEEKDPGMGAMGGMGGGMGGGMF
Chain of UniProt P13393 (whole entry, looked up): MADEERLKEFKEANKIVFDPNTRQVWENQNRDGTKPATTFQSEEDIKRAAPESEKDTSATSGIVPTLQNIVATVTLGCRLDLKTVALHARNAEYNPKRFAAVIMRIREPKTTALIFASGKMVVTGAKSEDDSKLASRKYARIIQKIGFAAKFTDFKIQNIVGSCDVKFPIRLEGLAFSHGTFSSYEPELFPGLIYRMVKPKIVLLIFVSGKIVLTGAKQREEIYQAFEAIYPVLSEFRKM

durvalumab — Cmax (human, plasma; intravenous, 1500 mg, cycle 4 day 1, geometric mean, together with: adavosertib 150 mg twice daily): 444000 ng/mL
TATCACAGAAAAAAAGAAAATATAATAAATTAGTATCAAGTCAATCGGTCC (dsDNA; 5'-amino-C6 primer) — Kd (SPT15 full length assumed (Saccharomyces cerevisiae, UniProt P13393); array; double-stranded DNA, one strand shown; TBP alone): 16.3 ± 1.3 nM
adrenomedullin — retention time (RP-HPLC; HALO C18 column; 25 µM, formic acid/acetonitrile, 25 min gradient): 5.75 min
insulin degludec — Cmax (human; subcutaneous, 0.4 IU/kg, 1 FC level, fat content group, single dose, reference formulation): 20.7 ± 4.3 ng/mL
pegcetacoplan — number of TEAEs (measured: blood and lymphatic disorders; patients with PNH; dose not given, phase Ib trial): 1
insulin icodec — AUC(0-inf) increase (human, moderate renal impairment, serum; subcutaneous, 1.5 U/kg single dose; relative to: normal renal function): 24%
B1 (human HSP60) — log2 fold change (CYB5R4 knockout human cells; PP4 interaction, 3xFLAG-PP4C IP-MS; concentration not given; relative to: CYB5R4 KO over parental): 1.31
insulin — concentration (LC-MS/MS; spiked human serum; one freeze-thaw cycle): 9.73 ng/mL
MLHGVAWQ — cellular uptake (HUVEC; ICP-OES, measured: rhenium; peptide; concentration not given, 24 h, 37 °C): 0.049 ppm
CAUUCCCUC (ssRNA) — Kd (U2AF2; sequencing of bound RNA; RNA; motif only): 570 nM
EHWSYGLRPG — cellular uptake (HUVEC; ICP-OES, measured: rhenium; peptide; concentration not given, 24 h, 37 °C): 0.054 ppm
UGUUUAGUU (ssRNA) — Kd (U2AF2; sequencing of bound RNA; RNA; motif only): 3390 nM
Neuropeptide Y — retention time (RP-HPLC; HALO Phenyl-hexyl column; 25 µM, formic acid/acetonitrile, 10 min gradient): 4.25 min

Some of these lines once more:
insulin icodec — AUC(0-inf) increase (human, moderate renal impairment, serum; subcutaneous, 1.5 U/kg single dose; relative to: normal renal function): 24%
